Assay results gathered from unrelated publications.
± marks the error that the study gave.
CYP2B6: Cytochrome P450 2B6 (CYP2B6, Homo sapiens, UniProt P20813)
Chain of UniProt P20813 (whole entry, looked up): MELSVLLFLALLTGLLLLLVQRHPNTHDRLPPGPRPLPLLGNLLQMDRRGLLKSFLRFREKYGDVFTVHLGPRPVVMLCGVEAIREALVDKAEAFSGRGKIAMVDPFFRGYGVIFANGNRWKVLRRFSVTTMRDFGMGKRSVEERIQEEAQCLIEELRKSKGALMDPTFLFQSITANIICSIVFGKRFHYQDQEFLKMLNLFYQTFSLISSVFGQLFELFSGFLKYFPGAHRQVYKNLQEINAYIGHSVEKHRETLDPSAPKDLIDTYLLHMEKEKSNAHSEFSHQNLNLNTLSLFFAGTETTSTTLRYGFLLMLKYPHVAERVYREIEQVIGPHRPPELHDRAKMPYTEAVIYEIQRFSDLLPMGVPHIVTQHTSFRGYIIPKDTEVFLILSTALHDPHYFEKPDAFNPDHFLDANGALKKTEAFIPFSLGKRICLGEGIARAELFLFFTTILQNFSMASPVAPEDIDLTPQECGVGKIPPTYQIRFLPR
CYP2D6: Cytochrome P450 2D6 (CYP2D6, Homo sapiens, UniProt P10635)
Chain of UniProt P10635 (whole entry, looked up): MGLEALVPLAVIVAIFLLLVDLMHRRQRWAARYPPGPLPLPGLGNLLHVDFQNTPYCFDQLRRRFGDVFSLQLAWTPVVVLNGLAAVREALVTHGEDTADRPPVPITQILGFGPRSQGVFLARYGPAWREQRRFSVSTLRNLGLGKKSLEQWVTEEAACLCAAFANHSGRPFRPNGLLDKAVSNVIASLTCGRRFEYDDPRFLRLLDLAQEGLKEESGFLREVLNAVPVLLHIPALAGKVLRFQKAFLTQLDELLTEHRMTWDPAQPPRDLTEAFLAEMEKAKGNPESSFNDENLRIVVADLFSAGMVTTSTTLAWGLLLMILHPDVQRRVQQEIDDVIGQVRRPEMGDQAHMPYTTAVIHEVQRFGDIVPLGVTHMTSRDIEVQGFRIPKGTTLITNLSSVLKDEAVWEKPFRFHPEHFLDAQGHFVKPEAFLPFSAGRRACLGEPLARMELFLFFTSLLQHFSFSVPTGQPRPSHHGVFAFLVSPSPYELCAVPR
Carboxypeptidase Y: Carboxypeptidase Y (Saccharomyces cerevisiae, UniProt P00729)
Chain of UniProt P00729 (whole entry, looked up): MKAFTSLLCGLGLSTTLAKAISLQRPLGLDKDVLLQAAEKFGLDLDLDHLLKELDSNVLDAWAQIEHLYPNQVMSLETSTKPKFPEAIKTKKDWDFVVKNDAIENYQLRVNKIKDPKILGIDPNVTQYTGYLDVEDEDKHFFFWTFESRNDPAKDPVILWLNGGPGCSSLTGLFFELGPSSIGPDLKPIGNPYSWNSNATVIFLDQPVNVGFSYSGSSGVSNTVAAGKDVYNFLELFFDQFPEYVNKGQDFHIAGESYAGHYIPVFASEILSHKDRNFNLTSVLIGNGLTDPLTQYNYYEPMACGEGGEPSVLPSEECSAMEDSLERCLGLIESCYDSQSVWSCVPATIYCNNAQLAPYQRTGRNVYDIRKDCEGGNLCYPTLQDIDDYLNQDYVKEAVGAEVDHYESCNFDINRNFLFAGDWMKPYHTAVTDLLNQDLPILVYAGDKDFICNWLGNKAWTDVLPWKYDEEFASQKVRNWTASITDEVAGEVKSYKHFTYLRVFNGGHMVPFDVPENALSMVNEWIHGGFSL
KCNH2: Voltage-gated inwardly rectifying potassium channel KCNH2 (KCNH2, Homo sapiens, UniProt Q12809)
Chain of UniProt O94956 (whole entry, looked up): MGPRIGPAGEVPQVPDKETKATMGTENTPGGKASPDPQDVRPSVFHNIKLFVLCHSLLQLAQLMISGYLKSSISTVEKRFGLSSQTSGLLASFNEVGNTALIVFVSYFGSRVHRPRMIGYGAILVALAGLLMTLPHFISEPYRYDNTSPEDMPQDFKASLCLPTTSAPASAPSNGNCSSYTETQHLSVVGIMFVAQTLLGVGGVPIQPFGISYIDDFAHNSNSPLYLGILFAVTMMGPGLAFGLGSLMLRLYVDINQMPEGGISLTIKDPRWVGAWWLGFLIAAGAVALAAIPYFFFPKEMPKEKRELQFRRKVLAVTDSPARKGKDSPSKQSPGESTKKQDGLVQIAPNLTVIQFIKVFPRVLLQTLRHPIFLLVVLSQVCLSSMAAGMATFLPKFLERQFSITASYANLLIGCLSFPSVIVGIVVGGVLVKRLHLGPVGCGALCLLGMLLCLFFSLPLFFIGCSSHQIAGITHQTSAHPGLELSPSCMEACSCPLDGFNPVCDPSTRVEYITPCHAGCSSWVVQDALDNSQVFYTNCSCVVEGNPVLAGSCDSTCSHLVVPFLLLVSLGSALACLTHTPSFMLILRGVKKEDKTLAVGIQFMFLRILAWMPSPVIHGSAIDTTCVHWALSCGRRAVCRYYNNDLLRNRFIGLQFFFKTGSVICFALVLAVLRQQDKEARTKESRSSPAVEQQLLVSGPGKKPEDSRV
Chain of UniProt P58406 (whole entry, looked up): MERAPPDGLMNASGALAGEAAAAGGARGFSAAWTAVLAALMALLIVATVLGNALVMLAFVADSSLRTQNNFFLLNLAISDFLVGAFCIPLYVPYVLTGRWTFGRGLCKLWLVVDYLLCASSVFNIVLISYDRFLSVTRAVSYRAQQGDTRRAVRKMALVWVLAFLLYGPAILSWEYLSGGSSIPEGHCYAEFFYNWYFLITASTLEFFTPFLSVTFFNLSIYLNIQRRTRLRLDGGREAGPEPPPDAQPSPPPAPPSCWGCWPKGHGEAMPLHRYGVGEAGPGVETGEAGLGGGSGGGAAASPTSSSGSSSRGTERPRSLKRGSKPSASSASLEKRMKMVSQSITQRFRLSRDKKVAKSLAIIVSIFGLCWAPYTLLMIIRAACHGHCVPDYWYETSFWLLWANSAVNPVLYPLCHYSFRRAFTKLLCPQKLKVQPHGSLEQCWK
Chain of UniProt Q9Y6L6 (whole entry, looked up): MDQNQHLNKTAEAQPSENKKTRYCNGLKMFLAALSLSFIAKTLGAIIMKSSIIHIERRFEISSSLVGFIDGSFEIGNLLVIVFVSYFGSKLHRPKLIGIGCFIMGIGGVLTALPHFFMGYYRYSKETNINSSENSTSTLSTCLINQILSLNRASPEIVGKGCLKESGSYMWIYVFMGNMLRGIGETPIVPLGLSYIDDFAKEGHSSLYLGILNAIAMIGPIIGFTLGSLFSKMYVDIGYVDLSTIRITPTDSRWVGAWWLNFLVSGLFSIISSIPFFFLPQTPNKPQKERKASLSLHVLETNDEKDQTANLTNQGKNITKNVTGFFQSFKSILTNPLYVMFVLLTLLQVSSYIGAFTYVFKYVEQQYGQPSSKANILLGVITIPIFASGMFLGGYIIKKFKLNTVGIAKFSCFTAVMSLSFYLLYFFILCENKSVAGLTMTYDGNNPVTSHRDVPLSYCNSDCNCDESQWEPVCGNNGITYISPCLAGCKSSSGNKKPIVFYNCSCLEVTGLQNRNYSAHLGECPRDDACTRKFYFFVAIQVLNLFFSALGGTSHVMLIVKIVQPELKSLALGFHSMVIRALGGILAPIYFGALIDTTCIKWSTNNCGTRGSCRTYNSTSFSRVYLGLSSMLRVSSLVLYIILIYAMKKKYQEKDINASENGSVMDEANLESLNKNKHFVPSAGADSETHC
Chain of UniProt P61073 (whole entry, looked up): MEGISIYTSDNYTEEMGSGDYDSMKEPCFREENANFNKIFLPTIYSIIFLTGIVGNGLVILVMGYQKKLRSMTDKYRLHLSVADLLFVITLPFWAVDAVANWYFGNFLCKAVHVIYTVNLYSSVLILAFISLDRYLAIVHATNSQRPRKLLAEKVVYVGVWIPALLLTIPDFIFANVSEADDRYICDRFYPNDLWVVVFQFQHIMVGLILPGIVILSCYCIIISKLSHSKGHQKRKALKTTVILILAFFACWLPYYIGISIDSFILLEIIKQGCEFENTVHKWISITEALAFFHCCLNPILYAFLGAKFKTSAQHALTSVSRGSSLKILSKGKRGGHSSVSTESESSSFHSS
Chain of UniProt P08684 (whole entry, looked up): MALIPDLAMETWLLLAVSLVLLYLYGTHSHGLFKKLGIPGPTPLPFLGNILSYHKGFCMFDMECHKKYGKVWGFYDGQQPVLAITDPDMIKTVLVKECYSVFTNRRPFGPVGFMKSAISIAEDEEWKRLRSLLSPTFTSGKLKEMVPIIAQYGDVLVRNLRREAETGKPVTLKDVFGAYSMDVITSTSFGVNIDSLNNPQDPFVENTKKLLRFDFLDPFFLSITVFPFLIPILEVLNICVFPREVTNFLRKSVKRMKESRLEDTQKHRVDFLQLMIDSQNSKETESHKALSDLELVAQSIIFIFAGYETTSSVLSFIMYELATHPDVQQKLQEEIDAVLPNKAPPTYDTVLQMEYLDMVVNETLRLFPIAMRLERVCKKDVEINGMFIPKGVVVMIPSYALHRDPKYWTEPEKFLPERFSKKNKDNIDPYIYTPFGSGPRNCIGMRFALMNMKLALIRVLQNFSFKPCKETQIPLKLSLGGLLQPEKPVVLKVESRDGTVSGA

| SMILES | tested on | assay | system | setting | scale | endpoint | value |
| --- | --- | --- | --- | --- | --- | --- | --- |
| C=C(C)[C@@H]1CCC(C(=O)O)=C[C@H]1c1c(O)cc(CCCCC)cc1O | CYP3A4/CYP2C19 | – | human | dose not given, single dose, added: rifampicin steady state | – | decrease in AUC(0-tau) | 44% |
| C=CC(=O)Nc1cc(Nc2nccc(-c3cn(C)c4ccccc34)n2)c(OCC(F)(F)F)nc1N(C)CCN(C)C | Cytochrome P450 3A4 (CYP3A4, Homo sapiens, UniProt P08684) | enzyme activity, inhibitor | human, liver microsomes | 33.3 µM, midazolam probe | – | activity vs control | 66% |
| CNC(=O)CC[C@@H](NC(=O)[C@@H](Cc1ccc(OP(=O)(O)O)cc1)NC(=O)[C@@H](Cc1ccccc1)NC(=O)[C@@H](Cc1ccccc1)NC(=O)Cc1ccc2ccccc2c1)C(=O)NC | alkaline phosphatase | substrate | SAOS-2 | 200 µM, 24 h | – | dephosphorylated fraction | 89.6% |
| Cc1cn2c(C(=O)NCc3ccc(C(F)(F)F)cc3)c(C)nc2s1 | CYP2B6 | inhibitor | – | – | – | IC50 | > 20 µM |
| C[C@@H]1CCCN1CCc1cc2cc(C(=O)c3ccc([18F])cc3)ccc2o1 | Hrh3 (Mus musculus, UniProt P58406) | PET | mouse, whole brain | intravenous, baseline | – | time of peak brain uptake | ~6.5 min |
| CC(C)(O)c1ccccc1CC[C@H](c1cccc(/C=C/c2ccc3ccc(Cl)cc3n2)c1)S(=O)(=O)CC1(CC(=O)O)CC1 | CYP2D6 | inhibitor | human liver microsomes | 10 µM, pH 7.4, added: dextromethorphan | – | inhibition | < 0% |
| N=C(N)NCCC[C@@H]1NC(=O)[C@H](CCCCNC(=O)CCOCCOCCOCCOCCNC(=O)CC[C@H](NC(=O)CCOCCOCCOCCOCCNC(=O)CC[C@H](NC(=O)CN2CCN(CC(=O)O)CCN(CC(=O)O)CCN(CC(=O)O)CC2)C(=O)NCCOCCOCCOCCOCCC(=O)N[C@@H](CCC(=O)NCCOCCOCCOCCOCCC(=O)NCCCC[C@@H]2NC(=O)[C@@H](Cc3ccccc3)NC(=O)[C@H](CC(=O)O)NC(=O)CNC(=O)[C@H](CCCNC(=N)N)NC2=O)C(=O)NCCOCCOCCOCCOCCC(=O)NCCCC[C@@H]2NC(=O)[C@@H](Cc3ccccc3)NC(=O)[C@H](CC(=O)O)NC(=O)CNC(=O)[C@H](CCCNC(=N)N)NC2=O)C(=O)NCCOCCOCCOCCOCCC(=O)NCCCC[C@@H]2NC(=O)[C@@H](Cc3ccccc3)NC(=O)[C@H](CC(=O)O)NC(=O)CNC(=O)[C@H](CCCNC(=N)N)NC2=O)NC(=O)[C@@H](Cc2ccccc2)NC(=O)[C@H](CC(=O)O)NC(=O)CNC1=O [indium-111 labelled] | – | – | female athymic nude mice, eyes | intravenous, 3 µCi, 4 h, U-87 MG glioma xenograft | – | tissue uptake | 1.03 ± 0.14 %ID/g |
| CC#N.O=S(=O)([O-])C(F)(F)F.O=S(=O)([O-])C(F)(F)F.Oc1ccc(O)c(CN(CCN(Cc2ccccn2)Cc2ccccn2)Cc2ccccn2)c1.[Mn+2] | Mn(II) complex, pyridine group | potentiometric pH titration | – | 25 °C, 100 mM KCl | – | pKa | 3.1 |
| O=C(O)CCC(NP(=O)(O)OCCC[C@@H](NC(=O)CCC(NC(=O)CCCCCNC(=O)CCCCCNC(=O)c1ccc([18F])cc1)C(=O)O)C(=O)O)C(=O)O (some centres unmarked) | CWR22Rv1 tumour model | – | host not given, kidney | intravenous, 1 h, tumour-bearing | – | tracer uptake | 5.87 %ID/g |
| CCC(=O)N(C)c1ccc(Cl)c(Cl)c1 | Salmonella typhimurium | Ames test | TA1535 | 0.05 mg/plate, without S9 activation | – | revertants | 15 ± 4.7 revertants/plate |
| CN1C(=O)[C@@H](Cc2ccc(O)cc2)NC(=O)CNC(=O)[C@H](Cc2ccc3ccccc3c2)NC(=O)[C@H](CCCNC(=N)N)NC(=O)[C@H]1CCCNC(=O)c1ccc(CNC(=O)CN2CCN(CC(=O)O)CCN(CC(=O)O)CCN(CC(=O)O)CC2)cc1 [gallium-68 labelled] | CXCR4 (Homo sapiens, UniProt P61073) | PET imaging | human, liver | – | – | SUVmean | 1.46 |
| CC(C)OC(=O)[C@H](C)NP(=S)(Oc1ccccc1)c1ccccc1 (some centres unmarked) | Carboxypeptidase Y | substrate, LC-MS/MS | – | 5 µM, pH 7.4, 37 °C | – | half-life | 0.648 h |
| C[C@@H](O)[C@H](NC(=O)[C@@H]1CCCN1C(=O)CNC(=O)[C@@H]1CC(=O)NCC(=O)N[C@H]2Cc3cn(c4ccccc34)-c3cc(ccc3O)C[C@H](NC2=O)C(=O)NCC(=O)N[C@@H](CO)C(=O)N[C@@H](CCC(N)=O)C(=O)N[C@@H](Cc2c[nH]c3ccccc23)C(=O)N1)C(=O)NCC(=O)N[C@@H](CCC(N)=O)C(=O)N[C@@H](CCCNC(=N)N)C(=O)N[C@@H](CC(=O)O)C(=O)O | Carboxypeptidase Y | HPLC-MS | – | 4 h, pH 6.75, 25 °C | – | proteolytic stability | no effect |
| CC[C@@H]1CN2CCc3c([nH]c4cccc(OC)c34)[C@@H]2C[C@@H]1/C(=C\OC)C(=O)OC | UDP-glucuronosyltransferase, rat | 4-MU glucuronidation, inhibitor | rat liver microsomes | 100 µM, 30 min, pH 7.4, added: 4-methylumbelliferone 100 µM | – | inhibition | 40% |
| CC(CCC(=O)NCC(=O)O)C1CCC2C3C(O)CC4CC(OC5OC(C(=O)O)C(O)C(O)C5O)CCC4(C)C3CCC12C (centres unmarked) | SLCO2B1 (Homo sapiens, UniProt O94956) | substrate | transfected HEK293 cells | 1 µM, 2 min | reference: wild-type HEK293 cells | uptake ratio | 2.8 ± 0.5 |
| C=C(C)[C@@H]1CCC(CO)=C[C@H]1c1c(O)cc(CCCCC)cc1O | CYP3A4/CYP2C19 | – | human | 750 mg single dose, alone | – | half-life | 16.5 h |
| CC[C@H](C)C(=O)N1CCC(NC(=O)Nc2ccc(OC(F)(F)F)c(F)c2)CC1 | – | – | human, plasma | oral, 16 mg, single dose, healthy volunteers | – | AUC(0-t) | 6780 ng·h/mL |
| CC[C@H](C)[C@H](NC(=O)[C@H](C)NC(=O)[C@@H](NC(=O)[C@H](CC(=O)O)NC(=O)[C@H](CCCCN)NC(=O)[C@H](CO)NC(=O)[C@@H](NC(=O)[C@H](CC(N)=O)NC(=O)[C@H](C)NC(=O)[C@@H](NC(=O)[C@H](CCC(=O)O)NC(=O)[C@H](CCCCN)NC(=O)[C@@H](NC(=O)[C@@H](NC(=O)[C@H](Cc1c[nH]cn1)NC(=O)[C@H](CCCCN)NC(=O)[C@@H](NC(=O)[C@H](CCCCN)NC(=O)[C@H](CCCCN)NC(=O)[C@@H](NC(=O)[C@H](CC(C)C)NC(=O)[C@H](CCCCN)NC(=O)[C@H](CC(N)=O)NC(=O)[C@H](Cc1ccccc1)NC(=O)[C@H](CCCNC(=N)N)NC(=O)[C@H](CCCCN)NC(=O)[C@H](CCCNC(=N)N)NC(=O)[C@H](Cc1ccccc1)NC(=O)CN)C(C)C)C(C)C)[C@@H](C)O)[C@@H](C)CC)[C@@H](C)O)C(C)C)C(C)C)C(=O)N[C@H](C(=O)N[C@@H](C)C(=O)NCC(=O)N[C@@H](CO)C(=O)NCC(=O)N[C@H](C(=O)N[C@@H](C)C(=O)N[C@H](C(=O)NCC(=O)N[C@@H](C)C(=O)N[C@@H](C)C(=O)N[C@@H](CCSC)C(N)=O)C(C)C)C(C)C)C(C)C | KCNH2 | potassium current, automated patch clamp | – | – | – | highest inactive concentration | > 30 µM |
| CCN(CC)CCOc1ccc(-c2nnn(Cc3ccc(OC)cc3)c2N)cc1 | KCNH2 | ion current, inhibitor, patch clamp | – | – | – | IC50 | 15.7 µM |
| CC[C@H](C)[C@H](NC(=O)[C@H](CC(N)=O)NC(=O)[C@H](Cc1ccccc1)NC(=O)CNC(=O)[C@H](CC(C)C)NC(=O)[C@H](Cc1ccccc1)NC(=O)[C@H](Cc1ccccc1)NC(=O)Cc1ccc2ccccc2c1)C(=O)O | proteinase K | substrate | hydrogel diluted with water | 24 h, 37 °C, added: proteinase K 3.2 U/mL | – | remaining compound | 63.1 ± 1% |
| N=C(N)NCCC[C@@H]1NC(=O)[C@H](CCCCNC(=O)CNC(=O)CNC(=O)CNC(=O)CC[C@H](NC(=O)CCOCCOCCOCCOCCNC(=O)CC[C@H](NC(=O)CN2CCN(CC(=O)O)CCN(CC(=O)O)CCN(CC(=O)O)CC2)C(=O)NCCOCCOCCOCCOCCC(=O)N[C@@H](CCC(=O)NCC(=O)NCC(=O)NCC(=O)NCCCC[C@@H]2NC(=O)[C@@H](Cc3ccccc3)NC(=O)[C@H](CC(=O)O)NC(=O)CNC(=O)[C@H](CCCNC(=N)N)NC2=O)C(=O)NCC(=O)NCC(=O)NCC(=O)NCCCC[C@@H]2NC(=O)[C@@H](Cc3ccccc3)NC(=O)[C@H](CC(=O)O)NC(=O)CNC(=O)[C@H](CCCNC(=N)N)NC2=O)C(=O)NCC(=O)NCC(=O)NCC(=O)NCCCC[C@@H]2NC(=O)[C@@H](Cc3ccccc3)NC(=O)[C@H](CC(=O)O)NC(=O)CNC(=O)[C@H](CCCNC(=N)N)NC2=O)NC(=O)[C@@H](Cc2ccccc2)NC(=O)[C@H](CC(=O)O)NC(=O)CNC1=O [indium-111 labelled] | – | – | female athymic nude mice, muscle | intravenous, 3 µCi, 0.5 h, U-87 MG glioma xenograft | – | tissue uptake | 1.64 ± 0.42 %ID/g |
| COc1cc(C(=O)NCCOCCOCCOCCNC(=O)c2ccc([18F])nc2)ccc1NC(=O)C1NC(CC(C)(C)C)C(C#N)(c2ccc(Cl)cc2F)C1c1cccc(Cl)c1F (centres unmarked) | HepG2 tumour model | – | host not given, bone | 30 min, tumour-bearing | – | tracer uptake | 1.58 %ID/g |
| [64Cu+2].c1ccc(CNCc2ccc(CN3CCCNCCNCCCNCC3)cc2)nc1 | CXCR4 | – | NOD/SCID mouse, U87 and U87-stb-CXCR4 xenografts | iv, 90 min, no blocking dose | reference: U87-stb-CXCR4 tumour over muscle | tumour-to-muscle ratio | 104 ± 9.97 |
| CC(CCC(=O)NCC(=O)O)C1CCC2C3CCC4CC(OC5OC(C(=O)O)C(O)C(O)C5O)CCC4(C)C3CC(O)C12C (centres unmarked) | SLCO1B1 (Homo sapiens, UniProt Q9Y6L6) | transporter uptake, inhibitor | – | – | – | IC50 | ≤ 28 µM |
| CCCC[C@H](NC(=O)CNC(=O)CNC(=O)c1ccc(NN)nc1)C(=O)N[C@H]1CC(=O)NCCCC[C@@H](C(N)=O)NC(=O)[C@H](Cc2c[nH]c3ccccc23)NC(=O)[C@H](CCCNC(=N)N)NC(=O)[C@@H](Cc2ccccc2)NC(=O)[C@H](Cc2c[nH]cn2)NC1=O [technetium-99m labelled] | – | – | C57 mouse, B16/F1 melanoma-bearing, kidneys | intravenous, 0.5 h | – | tissue uptake | 11.2 ± 1.68 %ID/g |
| CNC(=O)Oc1cc(C)c(S(C)(=O)=O)c(C)c1 | CYP2D6 | inhibitor | human liver microsomes | 10 µM, pH 7.4, added: dextromethorphan | – | inhibition | < 0% |
| CCCCCc1cc(O)c2c(c1)OC(C)(C)C1CCC(C(=O)OC3OC(C(=O)O)C(O)C(O)C3O)=CC21 (centres unmarked) | CYP2B6 | – | HEK cell microsomes | unit not given | reference: without NADPH over with NADPH | IC50 shift | 1.4 ± 0.16 |
| CC(C)(O)c1ccccc1CC[C@H](c1cccc(/C=C/c2ccc3ccc(Cl)cc3n2)c1)[S+]([O-])CC1(CC(=O)O)CC1 (some centres unmarked) | CYP2D6 | inhibitor | human liver microsomes | 2 µM, pH 7.4, added: dextromethorphan | – | inhibition | < 0% |
| CN[C@](C)(C[18F])C(=O)O | A549 tumour model | – | host not given, kidney | 15 min, tumour-bearing | – | tracer uptake | 18 %ID/g |
